Experimental data collected from several papers.
Numbered parts are unrelated; each lists some results of a single study.

Series 1
Target: Phosphate system positive regulatory protein PHO4, full length, GST-tagged (PHO4, Saccharomyces cerevisiae, UniProt P07270, residues 1-312)
Method: competition protein-binding microarray
Molecule type: double-stranded DNA, one strand shown
Matrix: in vitro
Concentration: 2 µM
Notes: whole 60-bp probe, lowest competitor level
Together with: Cbf1 competitor, 0.05 µM
Reading: higher = stronger binding
Target sequence (chain): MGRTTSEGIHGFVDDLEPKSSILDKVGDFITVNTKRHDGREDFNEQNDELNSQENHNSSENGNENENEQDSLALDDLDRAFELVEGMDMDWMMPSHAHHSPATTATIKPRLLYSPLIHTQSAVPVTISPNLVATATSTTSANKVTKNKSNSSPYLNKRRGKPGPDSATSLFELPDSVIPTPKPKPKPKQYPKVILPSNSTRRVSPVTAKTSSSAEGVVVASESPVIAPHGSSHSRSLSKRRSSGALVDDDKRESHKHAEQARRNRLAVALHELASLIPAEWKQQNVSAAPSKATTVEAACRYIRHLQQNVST
| Strand | fluorescence intensity |
| --- | --- |
| TTCAGCACAACCGACCACGTGAGACGAGGGTCGAAGGTCTTGATTCGCTTGACGCTGCTG | 16400 a.u. |
| CTTCTGTAAATTTGTATAGTGGGTGGACGCGCCCCGGTCTTGATTCGCTTGACGCTGCTG | 4870 a.u. |
| CATACCCAACCTTGATCAGTGGGTGAAGATATTTGTGTCTTGATTCGCTTGACGCTGCTG | 3420 a.u. |

Series 2
Target: Sal-like protein 4, full length isoform B (SALL4, Homo sapiens, UniProt Q9UJQ4-2, residues 1-616)
Method: universal PBM
Molecule type: double-stranded DNA, one strand shown
Matrix: in vitro
Concentration: not given
Notes: 8-mer, flanks averaged, mean of replicates
Reading: higher = stronger binding
| Strand | E-score |
| --- | --- |
| AAGCGGCT | -0.287 |
| ATCTGCCC | -0.165 |
| ACCCCTAA | -0.0995 |
| GCGGCTCC | -0.354 |

Series 3
Target: Histone acetyltransferase KAT6A, both winged helices, GST fusion (KAT6A, Homo sapiens, UniProt Q92794, residues 1-181)
Method: protein binding microarray
Molecule type: double-stranded DNA, one strand shown
Matrix: in vitro
Concentration: not given
Notes: 8-mer, flanks averaged, mean of 2 arrays, mostly near background
Relative to: not given
Reading: higher = stronger binding
Residues (chain): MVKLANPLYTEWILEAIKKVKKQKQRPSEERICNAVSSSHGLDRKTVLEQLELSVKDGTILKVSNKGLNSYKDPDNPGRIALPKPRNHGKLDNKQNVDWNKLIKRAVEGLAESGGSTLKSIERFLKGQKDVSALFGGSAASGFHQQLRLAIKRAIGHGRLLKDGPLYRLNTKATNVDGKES
| Strand | E-score |
| --- | --- |
| ACGTCGCA | 0.113 |
| AACGATTG | -0.0197 |
| CAAGATCC | 0.0218 |
| CTTCGTAA | 0.00624 |

Further values, each from its own experiment
| Molecule | target | test | test system | setting | how to read | measurement | result |
| --- | --- | --- | --- | --- | --- | --- | --- |
| PhoQ, residues 284 288 289 292 302 303 SIHLQL | PhoP, residues 12 14 15 18 19 SPWRL (Escherichia coli, UniProt P23836) | Sort-seq, refers to: YFP reporter | E. coli | PhoQ-PhoP variant library, together with: 10 µM Mg2+ | relative to: high Mg2+ state, higher = stronger signaling | fold induction | 7.95 |

For quick reference, copied from above (further values, each from its own experiment):
| Molecule | target | test | test system | setting | how to read | measurement | result |
| --- | --- | --- | --- | --- | --- | --- | --- |
| PhoQ, residues 284 288 289 292 302 303 SIHLQL | PhoP, residues 12 14 15 18 19 SPWRL (Escherichia coli, UniProt P23836) | Sort-seq, refers to: YFP reporter | E. coli | PhoQ-PhoP variant library, together with: 10 µM Mg2+ | relative to: high Mg2+ state, higher = stronger signaling | fold induction | 7.95 |
